Published values of several laboratories.
A part holds a random share of what one study measured.

Block 1 — method: RNA Bind-n-Seq; form: RNA; matrix: in vitro; concentration: 200 nM; notes: whole 134-nt RNA, ends assumed; with: 150 mM LiCl; relative to: input library; reading: higher = stronger binding; each molecule: 7-deaza-guanosine replaces G
Target: Ras GTPase-activating protein-binding protein 1, full length (G3BP1, Homo sapiens, UniProt Q13283)
Chain of UniProt Q13283 (whole entry, looked up): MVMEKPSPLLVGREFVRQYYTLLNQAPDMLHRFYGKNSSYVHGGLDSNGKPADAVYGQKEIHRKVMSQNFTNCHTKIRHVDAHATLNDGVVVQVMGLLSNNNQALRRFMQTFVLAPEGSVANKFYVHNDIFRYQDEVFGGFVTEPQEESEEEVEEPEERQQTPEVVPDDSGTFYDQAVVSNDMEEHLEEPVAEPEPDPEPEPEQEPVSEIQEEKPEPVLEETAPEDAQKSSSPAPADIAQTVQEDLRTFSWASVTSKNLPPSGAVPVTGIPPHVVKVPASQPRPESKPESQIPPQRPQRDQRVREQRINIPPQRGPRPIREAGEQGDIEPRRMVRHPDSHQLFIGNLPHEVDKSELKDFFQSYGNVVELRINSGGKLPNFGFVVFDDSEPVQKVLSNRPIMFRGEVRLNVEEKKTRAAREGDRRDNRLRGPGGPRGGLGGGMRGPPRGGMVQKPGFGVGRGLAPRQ
Shared flanks, not repeated: GGGAGUUCUACAGUCCGACGAUC … UGGAAUUCUCGGGUGUCAAGG
| Strand | log2 enrichment |
| --- | --- |
| UGGCCCUGGUGGCAAGCGGGGAGGAAGAGGUGGCCUCAUGGAUCGUGGUGGUCCCGGUGGAAUGUUCAGAGGUGGCCGUGGUGGAGACAG | 0.592 |
| CCUCAAGUCCUGUGCUACACAUCGUAUGUACCGAAUCGGAGGGAGGGGAGGGAAAGUAUUAUGUUACGCCGUUCGGAUCUGCACUUCCAG | -0.013 |
| CACAAACAACACGCACCCACACAGACACAGAGGGAAGGGGUUGGGAUGGGGACAGGGUGCACAGCAGGGCGGGGUAGGACCCCAGCCCCU | 0.284 |
| UCCUGUGCUACACAUCGUAUGUACCGAAUCAAAUUUUUAAACCCCCAAACCCCCCCAAAAAAGUAUUAUGUUACGCCGUUCGGAUCUGCA | 0.942 |
| CUCAAGUCCUGUGCUACACAUCGUAUGUACCGAAUCGGUGGUUUUUUUGGAGGAAAGUAUUAUGUUACGCCGUUCGGAUCUGCACUUCCA | 0.987 |
| CUGUGCUACACAUCGUAUGUACCGAAUCGGGCCCCCCCGGGGCCCCCCCGGGGCCCCCCCGGAAAGUAUUAUGUUACGCCGUUCGGAUCU | 0.0784 |
| UCCUGUGCUACACAUCGUAUGUACCGAAUCGGGAAAAAAAGGGAAAAAGGGUUUUUGGGAAAGUAUUAUGUUACGCCGUUCGGAUCUGCA | -1.05 |
| AAGUCCUGUGCUACACAUCGUAUGUACCGAAUCGGAAAAAAAGGAGGAAAAAAAGGAAAGUAUUAUGUUACGCCGUUCGGAUCUGCACUU | -0.269 |

Block 2 — method: protein-binding microarray; form: double-stranded DNA, one strand shown; matrix: in vitro; concentration: not given; reading: higher = stronger binding
Target: Hepatocyte nuclear factor 3-beta, forkhead domain (FOXA2, Homo sapiens, UniProt Q9Y261, residues 142-269)
Notes: k-mer, scored over probes, only values ≥0.25
Residues (chain): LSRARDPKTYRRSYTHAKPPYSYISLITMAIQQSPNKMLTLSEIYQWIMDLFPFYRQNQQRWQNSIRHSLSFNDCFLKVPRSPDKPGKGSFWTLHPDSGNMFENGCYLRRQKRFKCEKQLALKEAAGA
| Strand | E-score |
| --- | --- |
| AACATCAA | 0.351 |
| TATAATAA | 0.272 |
| ATACGTAT | 0.264 |
| AGTAACAG | 0.296 |
| TATAGTAA | 0.349 |
| CATTCATA | 0.312 |
| CAAATATC | 0.314 |
| CTTAACTA | 0.274 |
| CATCAATA | 0.323 |
| GTTAAACA | 0.357 |
| GGTAAACA | 0.401 |
| GTAGAATA | 0.3 |
| GTCATATA | 0.288 |
| AACTATAC | 0.292 |
| AATATGGA | 0.328 |
| TACTACTA | 0.267 |
| AAGAACAT | 0.254 |
| CTAACATA | 0.31 |
| ACATGATA | 0.354 |
| TATTCCAA | 0.264 |
| TATTATGA | 0.254 |
| ATCAATCA | 0.276 |
| ATCAACAT | 0.406 |
| ATGCAAAC | 0.274 |
| ACAGTATA | 0.343 |

Block 3 — method: protein-binding microarray; form: double-stranded DNA, one strand shown; matrix: in vitro; concentration: 0.8 µM; notes: whole 60-bp probe, no competitor; reading: higher = stronger binding; shared flanks, not repeated: … GTCTTGATTCGCTTGACGCTGCTG
Target: Centromere-binding protein 1, full length, N-terminal tag (CBF1, Saccharomyces cerevisiae, UniProt P17106, residues 1-351)
Chain of UniProt P17106 (whole entry, looked up): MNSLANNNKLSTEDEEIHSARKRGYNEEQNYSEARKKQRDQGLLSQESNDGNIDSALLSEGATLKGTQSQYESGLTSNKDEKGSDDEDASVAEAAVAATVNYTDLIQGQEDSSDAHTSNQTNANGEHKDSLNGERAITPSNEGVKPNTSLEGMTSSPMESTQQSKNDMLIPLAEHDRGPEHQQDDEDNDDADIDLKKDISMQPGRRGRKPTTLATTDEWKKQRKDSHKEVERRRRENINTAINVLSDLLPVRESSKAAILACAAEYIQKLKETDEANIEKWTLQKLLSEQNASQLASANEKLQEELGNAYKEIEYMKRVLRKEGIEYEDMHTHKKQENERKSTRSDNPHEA
| Strand | fluorescence intensity |
| --- | --- |
| CTATTTGTTCCTTGGAACCACATGATTTACTCATTC | 1510 a.u. |
| TGTACGAAGCTATATCACGTGACTATAGTAGTTAGG | 37400 a.u. |
| CTACTTGTCTCAGGTCACACCATTCACGATTCCTTC | 802 a.u. |
| TGTACGAAGCTATTGCAGGTGAATATAGTAGTTAGG | 535 a.u. |
| CTATTAGTAGAACCTCGTGAAACTTACATTTACTTC | 557 a.u. |
| GAACTAGGCGTTTGTCACCTTTCATCCGTGCCGTAG | 517 a.u. |
| GAATATAAACACGATCACGTTTCACTCTTGAAATAG | 2110 a.u. |
| TGTACGAAGCTATGAGATGTGACTATAGTAGTTAGG | 537 a.u. |
| CCTAACTACTATAGCCACGTGGGATAGCTTCGTACA | 4480 a.u. |
| TGTACGAAGCTATGTCTCGTGGGTATAGTAGTTAGG | 647 a.u. |
| GAACCGCCCAGCTCCCACGTGCATATCACGTGCTAG | 22000 a.u. |
| GAATTTTTTTCAGAAAACGTGAAACTGGGTAACTAG | 692 a.u. |
| GAACGTTGACTTCGTCATCTGACTTAATAGCAGTAG | 1670 a.u. |
| CTATCGGAGAAAAGTCACGTGCAAAAAGAAATCTTC | 16600 a.u. |

Block 4 — method: RNA Bind-n-Seq; form: RNA; matrix: in vitro; concentration: 365 nM; relative to: no-protein control; reading: higher = stronger binding
Target: RNA binding protein fox-1 homolog 2, RRM domain, GST-SBP tag (RBFOX2, Homo sapiens, UniProt O43251-10, residues 100-194)
Notes: natural RNA segment, single round, ends assumed
Shared flanks, not repeated: GGGAGUUCUACAGUCCGACGAUC … UGGAAUUCUCGGGUGCCAA
Residues (chain): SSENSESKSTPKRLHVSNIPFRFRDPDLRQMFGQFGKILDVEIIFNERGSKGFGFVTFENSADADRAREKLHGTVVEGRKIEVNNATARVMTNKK
| Strand | RBNS enrichment (R) |
| --- | --- |
| UGUUUUUAAAGGUGGAUUUUGUUUAAAAAAUCUUAAUGAAUGAGUCUGUUGUGUGUCAUGCCAGUGAGGGACGUCAGACUUGGCUCAGCUCGGGGAGCCUUAGCCGCCCA | 0.569 |
| AAGUAUUUGUAUUUAUUUAUGAUUAUCAAUUUUACAUAACAUUAAUAUUAUAUCAGACCUCCUUAAGAAAAUGAGUAUGGAUGUUCACAGUAUGUUUGAUUUUUAUCCAC | 0.582 |
| GUCCUUUCUGGGACCUGUCUGCAUAACCCUCCCCAUCCUGGCUCUCCUGCAUCUUCUUACCCUUUACAAAGUCUGACCCGGCCAUUUCCAGCAGACCUGUGAGCCAGCCA | 1.19 |
| UUAUAGGUAGGGGCCCCACCCUCUGGGCUUCCCAUCAGCGACACACACACACUUAUGGCACCAGCCUGGACUCCAGAAAAAGGGUGUCCAGGUAUUGUGUGUAUGCAUUU | 0.455 |
| AACACUCGCUUCAGCUCAGACUCAGUGGACAUCAGAGUCUCUGUCUCCGUGUCUCAGUUAUGGUCUGCUCUCUCUAUGCCUGGAGCUACUGAUCCAAACACAAGACGGUC | 0.308 |
| AAUGGAAAUCCCUUGACAUCUACUACCUCUUCCCCUUCUCUCUGAAACAGCUGCCUUAGCUUCAGGAACCUUGAGUACUGUGGGCAAUUUAGAAAACGGAAAUGCAGUUU | 0.304 |
| AGACCGUGCCACCACAUGCCAGGUUAUCAAGCACCAGCAGCUGAUGGAACAGGCUGUGGCCCCUGAGUCAUCUGAAACCUUGACAGACAGUGAGACAAAUGGAAGUACUC | 0.272 |
| AGACAUGGGGCAUGUGUCUGCCAAUAGCCAGUUGUUCUCAGUGUGCACUAUGUAGGUCCCCAUCCACUACUUGACCACCUUUAUCAUUUACGGGGAUUUACAUAGAUUAC | 2.25 |

Block 5 — method: protein binding microarray; form: double-stranded DNA, one strand shown; matrix: in vitro; concentration: not given; relative to: not given; reading: higher = stronger binding
Target: Histone acetyltransferase KAT6A, winged helix 2, GST fusion (KAT6A, Homo sapiens, UniProt Q92794, residues 85-181)
Notes: 8-mer, flanks averaged, mean of 2 arrays, mostly near background
Residues (chain): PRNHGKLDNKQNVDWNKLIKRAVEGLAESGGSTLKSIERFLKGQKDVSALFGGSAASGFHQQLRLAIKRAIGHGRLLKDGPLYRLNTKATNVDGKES
| Strand | E-score |
| --- | --- |
| ATAGTCAG | -0.0208 |
| AAACCGAC | 0.121 |
| GCGTCGAA | 0.119 |
| CCTCCAAG | 0.0592 |
| CGACGATC | 0.112 |
| CGGATCGC | 0.06 |
| AGACCCGG | 0.0477 |
| AGAATGCG | -0.0605 |
| CGATCTTA | -0.141 |
| TAGGATAA | -0.0959 |
| CATATTTA | 0.0635 |
| CTGTACTA | -0.0574 |
| ATTTATGG | 0.0152 |
| ATCAAGAA | 0.0751 |
| GAACGGGA | 0.0905 |
| CGGCGGCC | -0.0365 |
| ACGAAACC | 0.0823 |
| ATAAAAGC | -0.00546 |
| GCCACCTA | -0.144 |
| CTGAGGAC | -0.0415 |
| CGCGTAAA | -0.0208 |
| CGTTGGGC | -0.064 |
| GATACGCC | 0.0607 |
| GCAGCGAA | 0.17 |
| CGACGTCC | 0.0962 |
